{"data": "Measured values from different studies", "cell line": "SK-OV-3", "note": "Each line is one published result; not all experiments were run side by side. pIC50: −log10 of the molar value."}
{"SMILES": "CNC(NN=Cc1ccc([N+](=O)[O-])o1)=[S+][Au-][Cl]", "test": "cell growth or viability, resazurin", "pIC50": 4.79}
{"SMILES": "CCCc1cc2cc(-n3nc(C4CCC4)c4c3CC(C)(C)CC4=O)cc(N3CCC(O)CC3)c2c(=O)[nH]1", "test": "cell growth or viability, MTS", "pIC50": "< 4.30"}
{"SMILES": "Oc1ccc(C#Cc2cccc3c2C(c2ccc(O)cc2)(c2ccc(O)cc2)c2cc(O)ccc2-3)cc1", "test": "cell growth or viability, MTT", "conditions": "48 h", "pIC50": 4.94}
{"SMILES": "CCCc1cc2cc(-n3c4c(c5ccccc53)C(=O)CC(C)(C)C4)cc(N3CCC(O)CC3)c2c(=O)[nH]1", "test": "cell growth or viability, MTS", "pIC50": 4.95}
{"SMILES": "CC(C)c1ccc(N(C)c2ccc3c(c2)OCC[C@H]3CNc2cnccc2C(=O)O)cc1", "test": "cell growth or viability, ATP luminescence", "conditions": "7 days", "pIC50": "≤ 5.00"}
{"SMILES": "CCCc1cc2cc(-n3nc(CO)c4c3CC(C)(C)CC4=O)cc(N3CCC(O)CC3)c2c(=O)[nH]1", "test": "cell growth or viability, MTS", "pIC50": "< 4.30"}
{"SMILES": "CCOc1cncc(-c2ccc(NC(=O)C3(c4ccnc(NS(=O)(=O)C5CC5)n4)CCOCC3)nc2)n1", "test": "cell proliferation, CellTiter-Glo", "conditions": "72 h", "pIC50": 7.19}
{"SMILES": "O=C(O)c1ccc(-c2ccc(O)cc2)c2c1C=C(c1ccc(O)cc1)OC2(c1ccc(O)cc1)c1ccc(O)cc1", "test": "cell growth or viability, MTT", "conditions": "48 h", "pIC50": 5.09}
{"SMILES": "CCNC(=S)NN=Cc1ccc([N+](=O)[O-])o1", "test": "cell growth or viability, resazurin", "pIC50": 4.33}
{"SMILES": "C=CC(=O)N1CCC(Cc2ccc(C(=O)N3CCN(c4nc(-c5cnc(N)nc5C(F)F)nc(N5CCOCC5)n4)CC3)cc2)CC1", "test": "Akt phosphorylation, inhibitor, in-cell western, item: Akt pSer473", "conditions": "1 h", "pIC50": 7.27}
{"SMILES": "CCCc1cc2cc(-n3nc(C)c4ncccc43)cc(N3CCC(O)CC3)c2c(=O)[nH]1", "test": "cell growth or viability, MTS", "pIC50": 4.51}
{"SMILES": "Cc1ccc([N+](=O)[O-])cc1S(=O)(=O)N(C)/N=C/c1cnc2ccc(Br)cn12", "test": "cell viability, MTS", "pIC50": 6.54}
{"SMILES": "CNC(=S)NN=Cc1ccc([N+](=O)[O-])o1", "test": "cell growth or viability, resazurin", "pIC50": 4.55}
{"SMILES": "COC(OC)c1ccc(-c2ccc(O)cc2)c(C(=C2C=CC(=O)C=C2)c2ccc(O)cc2)c1C#Cc1ccc(O)cc1", "test": "cell growth or viability, MTT", "conditions": "48 h", "pIC50": "< 4.30"}
{"SMILES": "O=[N+]([O-])c1ccc(C=NNC(=S)Nc2ccccc2)o1", "test": "cell growth or viability, resazurin", "pIC50": "< 4.00"}
{"SMILES": "O=C(O)c1ccc2c3n(nc2c1)[C@@H]1[C@H](CO3)N(CC2CC2)[C@@]2(C(=O)Nc3cc(Cl)ccc32)[C@H]1c1cccc(Cl)c1F", "test": "cell growth or viability, ATP luminescence", "pIC50": "< 5.30"}
